# Results collected from several papers.
# Lines come from different studies, so protocols differ. ± marks the error that the study gave.
# Organism: Escherichia coli
Molecule,test,test system,conditions,MIC
C[C@H](N)C(=O)N[C@@H](CS)C(=O)N1CCC[C@H]1C(=O)N[C@@H](Cc1c[nH]cn1)C(=O)N[C@@H](CCCNC(=N)N)C(=O)N[C@@H](CS)C(=O)O,broth microdilution,MTCC 443,37 °C,45 µg/mL
gentamicin,broth microdilution,ATCC 25922,"24 h, 37 °C",0.5 µg/mL
CC(C)C[C@H](NC(=O)[C@H](C)NC(=O)CNC(=O)[C@@H](NC(=O)[C@H](CC(C)C)NC(=O)[C@H](CCCCN)NC(=O)[C@H](CCCCN)NC(=O)[C@H](CC(C)C)NC(=O)[C@H](CC(C)C)NC(=O)[C@H](CCCCN)NC(=O)[C@H](CC(C)C)NC(=O)[C@H](CC(C)C)NC(=O)[C@@H](N)CCCCN)C(C)C)C(=O)NCC(N)=O,,"ATCC 25922, CAMHB","18 h, 37 °C",3 µM
CC[C@H](C)[C@H](NC(=O)[C@H](Cc1c[nH]c2ccccc12)NC(=O)[C@@H](N)CCCNC(=N)N)C(=O)N[C@@H](CCCNC(=N)N)C(=O)N[C@@H](Cc1c[nH]c2ccccc12)C(=O)N[C@H](C(=O)N[C@@H](Cc1c[nH]c2ccccc12)C(=O)N[C@@H](CCCNC(=N)N)C(=O)N[C@@H](CCCCN)C(=O)N[C@@H](CCCCN)C(=O)N[C@@H](CC(C)C)C(=O)N[C@@H](CCCNC(=N)N)C(N)=O)C(C)C,,ATCC 25922,"1 h, 37 °C, non-dividing cells in PBS",≥ 100 µg/mL
CC[C@H](C)[C@H](NC(=O)CNC(=O)[C@H](CCCNC(=N)N)NC(=O)[C@H](Cc1ccccc1)NC(=O)[C@@H](NC(=O)[C@H](Cc1c[nH]cn1)NC(=O)[C@H](Cc1c[nH]cn1)NC(=O)[C@H](Cc1ccccc1)NC(=O)[C@@H](N)Cc1ccccc1)[C@@H](C)CC)C(=O)N[C@H](C(=O)N[C@@H](Cc1c[nH]cn1)C(=O)N[C@H](C(=O)NCC(=O)N[C@@H](CCCCN)C(=O)N[C@H](C(=O)N[C@H](C(=O)N[C@@H](Cc1c[nH]cn1)C(=O)N[C@@H](CCCNC(=N)N)C(=O)N[C@@H](CC(C)C)C(=O)N[C@H](C(=O)N[C@H](C(=O)NCC(N)=O)[C@@H](C)O)C(C)C)[C@@H](C)CC)[C@@H](C)O)C(C)C)C(C)C,broth microdilution,ATCC 25922,"18 h, 37 °C",3.1 µg/mL
CC1(C)SC2C(NC(=O)C(NC(=O)C3=C(O)C(Cc4ccco4)NC3=O)c3ccccc3)C(=O)N2C1C(=O)O (centres unmarked),broth microdilution,"BW25113, Mueller-Hinton broth","added: 2,2'-bipyridyl 30 µg/mL",3.13 µg/mL
CC(C)C[C@@H](N)C(=O)N[C@@H](C(=O)N[C@H](Cc1c[nH]c2ccccc12)C(=O)N[C@H](CCCCN)C(=O)N[C@H](CC(C)C)C(=O)N[C@H](Cc1c[nH]c2ccccc12)C(=O)N[C@H](Cc1c[nH]c2ccccc12)C(=O)N[C@H](CCCNC(=N)N)C(=O)N[C@H](CC(C)C)C(=O)N[C@H](CCCNC(=N)N)C(=O)N[C@H](Cc1c[nH]c2ccccc12)C(=O)N[C@H](CC(C)C)C(=O)N[C@H](CCCCN)C(N)=O)C(C)C,broth microdilution,"ATCC 25922, LB medium","16 to 20 h, 37 °C",50 µg/mL
CC[C@H](C)[C@H](N)C(=O)N[C@@H](CCCCN)C(=O)N[C@@H](Cc1c[nH]c2ccccc12)C(=O)N[C@@H](CCCCN)C(=O)N[C@@H](CCCCN)C(=O)N[C@@H](CC(C)C)C(=O)N[C@@H](CC(C)C)C(=O)N[C@@H](CCCNC(=N)N)C(=O)N[C@@H](C)C(=O)N[C@@H](C)C(=O)N[C@@H](CCCCN)C(=O)N[C@@H](CCCNC(=N)N)C(=O)N[C@H](C(=O)N[C@@H](CC(C)C)C(N)=O)[C@@H](C)CC,broth microdilution,K12,37 °C,3.1 µM
CC(C)C[C@H](NC(=O)[C@H](CCCNC(=N)N)NC(=O)[C@H](CC(C)C)NC(=O)[C@@H](NC(=O)[C@H](C)NC(=O)[C@H](Cc1c[nH]cn1)NC(=O)[C@H](CC(C)C)NC(=O)[C@@H](NC(=O)[C@@H](N)CO)[C@@H](C)O)C(C)C)C(=O)N[C@@H](CCCNC(=N)N)C(=O)NCC(=O)NCC(=O)O,,DH5α,"37 °C, ≥90% viability decrease",5 µM
CC[C@H](C)[C@H](NC(=O)[C@H](CCCNC(=N)N)NC(=O)[C@@H]1CCCN1C(=O)[C@H](Cc1c[nH]cn1)NC(=O)[C@@H]1CCCN1C(=O)[C@@H]1CCCN1C(=O)[C@H](CCCNC(=N)N)NC(=O)[C@@H]1CCCN1C(=O)[C@H](CCC(N)=O)NC(=O)[C@@H]1CCCN1C(=O)[C@@H](NC(=O)[C@H](Cc1ccc(O)cc1)NC(=O)[C@@H](NC(=O)[C@@H]1CCCN1C(=O)[C@H](CCCNC(=N)N)NC(=O)[C@H](CC(N)=O)NC(=O)[C@H](CC(N)=O)NC(=O)CN)C(C)C)[C@@H](C)CC)C(=O)O,broth microdilution,K12,37 °C,> 100 µM
CC[C@H](C)[C@H](NC(=O)[C@H](CCCNC(=N)N)NC(=O)[C@@H](N)CCCNC(=N)N)C(=O)N[C@@H](CCCCN)C(=O)N[C@@H](CCCCN)C(=O)N[C@@H](CCCNC(=N)N)C(=O)N1CCC[C@H]1C(=O)N1CCC[C@H]1C(=O)N[C@@H](CCCNC(=N)N)C(=O)N[C@@H](CC(C)C)C(=O)N1CCC[C@H]1C(=O)N[C@@H](CCCNC(=N)N)C(=O)N1CCC[C@H]1C(=O)N[C@@H](CCCNC(=N)N)C(=O)N1CCC[C@H]1C(=O)N[C@@H](CCCCN)C(=O)O,,JW0368 ΔsbmA,"18 h, 37 °C, 12.5% Mueller-Hinton broth",0.06 ± 0.014 µM
CC[C@H](C)[C@H](NC(=O)CN)C(=O)N[C@@H](CCCCN)C(=O)N[C@H](C(=O)N[C@@H](CCCNC(=N)N)C(=O)N[C@@H](CCCCN)C(=O)N[C@@H](CC(C)C)C(=O)N[C@@H](Cc1ccccc1)C(=O)N[C@@H](CCCCN)C(=O)N[C@@H](CCCCN)C(=O)N[C@@H](CC(C)C)C(=O)N[C@@H](CC(C)C)C(=O)N[C@@H](CCCNC(=N)N)C(N)=O)[C@@H](C)CC,,ATCC 25922,"1 h, 37 °C, non-dividing cells in PBS",12.5 to 25 µg/mL
CC[C@H](C)[C@H](NC(=O)CNC(=O)[C@H](CC(=O)O)NC(=O)[C@H](CCCNC(=N)N)NC(=O)[C@@H](NC(=O)[C@H](CC(N)=O)NC(=O)[C@H](CCCNC(=N)N)NC(=O)CNC(=O)[C@@H](NC(=O)[C@H](CCCCN)NC(=O)[C@H](CCC(=O)O)NC(=O)[C@@H](NC(=O)[C@H](CCCCN)NC(=O)[C@H](CCCCN)NC(=O)[C@H](Cc1ccccc1)NC(=O)[C@@H](NC(=O)[C@H](CCCCN)NC(=O)[C@H](Cc1c[nH]c2ccccc12)NC(=O)[C@@H](N)CCCCN)[C@@H](C)CC)[C@@H](C)CC)C(C)C)C(C)C)C(=O)N[C@H](C(=O)N[C@@H](CCCCN)C(=O)N[C@@H](C)C(=O)NCC(=O)N1CCC[C@H]1C(=O)N[C@@H](C)C(=O)N[C@H](C(=O)N[C@@H](CCC(N)=O)C(=O)N[C@H](C(=O)N[C@H](C(=O)NCC(=O)N[C@@H](CCC(N)=O)C(=O)N[C@@H](C)C(=O)N[C@H](C(=O)N[C@@H](CO)C(=O)N[C@H](C(=O)N[C@@H](C)C(=O)N[C@@H](CCCCN)C(N)=O)[C@@H](C)CC)[C@@H](C)O)C(C)C)C(C)C)C(C)C)[C@@H](C)CC,broth microdilution,DH5α,"20 h, 37 °C",4.9 ± 2.3 µg/mL
CC[C@H](C)[C@H](NC(=O)[C@@H]1CCCN1C(=O)[C@H](CCCCN)NC(=O)[C@@H]1CCCN1C(=O)[C@@H]1CCCN1C(=O)[C@@H](NC(=O)[C@@H]1CCCN1C(=O)[C@H](CCCNC(=N)N)NC(=O)[C@@H]1CCCN1C(=O)[C@H](CCCNC(=N)N)NC(=O)[C@H](Cc1ccc(O)cc1)NC(=O)[C@H](CO)NC(=O)CNC(=O)[C@H](CCCCN)NC(=O)[C@H](CC(=O)O)NC(=O)[C@@H](N)C(C)C)[C@@H](C)O)C(=O)N[C@@H](Cc1ccc(O)cc1)C(=O)N[C@@H](CC(N)=O)C(=O)N[C@@H](CCCNC(=N)N)C(=O)N[C@@H](CC(N)=O)C(=O)O,,JW0368 ΔsbmA,"18 h, 37 °C, 12.5% Mueller-Hinton broth",0.3 ± 0.07 µM

# Repeated from above:
Molecule,test,test system,conditions,MIC
CC[C@H](C)[C@H](NC(=O)[C@H](CCCNC(=N)N)NC(=O)[C@@H]1CCCN1C(=O)[C@H](Cc1c[nH]cn1)NC(=O)[C@@H]1CCCN1C(=O)[C@@H]1CCCN1C(=O)[C@H](CCCNC(=N)N)NC(=O)[C@@H]1CCCN1C(=O)[C@H](CCC(N)=O)NC(=O)[C@@H]1CCCN1C(=O)[C@@H](NC(=O)[C@H](Cc1ccc(O)cc1)NC(=O)[C@@H](NC(=O)[C@@H]1CCCN1C(=O)[C@H](CCCNC(=N)N)NC(=O)[C@H](CC(N)=O)NC(=O)[C@H](CC(N)=O)NC(=O)CN)C(C)C)[C@@H](C)CC)C(=O)O,broth microdilution,K12,37 °C,> 100 µM
CC[C@H](C)[C@H](NC(=O)[C@H](CCCNC(=N)N)NC(=O)[C@@H](N)CCCNC(=N)N)C(=O)N[C@@H](CCCCN)C(=O)N[C@@H](CCCCN)C(=O)N[C@@H](CCCNC(=N)N)C(=O)N1CCC[C@H]1C(=O)N1CCC[C@H]1C(=O)N[C@@H](CCCNC(=N)N)C(=O)N[C@@H](CC(C)C)C(=O)N1CCC[C@H]1C(=O)N[C@@H](CCCNC(=N)N)C(=O)N1CCC[C@H]1C(=O)N[C@@H](CCCNC(=N)N)C(=O)N1CCC[C@H]1C(=O)N[C@@H](CCCCN)C(=O)O,,JW0368 ΔsbmA,"18 h, 37 °C, 12.5% Mueller-Hinton broth",0.06 ± 0.014 µM
